# Experimental data pooled from the literature.
# Compare with care: the assays were run in different laboratories. Several values in a cell are separate wells, animals, samples, runs or records. ± marks the error that the study gave.
# Dual specificity protein phosphatase 5: Dual specificity protein phosphatase 5 (Homo sapiens, UniProt Q16690)
# UniProt Q16690, sequence (whole entry, looked up): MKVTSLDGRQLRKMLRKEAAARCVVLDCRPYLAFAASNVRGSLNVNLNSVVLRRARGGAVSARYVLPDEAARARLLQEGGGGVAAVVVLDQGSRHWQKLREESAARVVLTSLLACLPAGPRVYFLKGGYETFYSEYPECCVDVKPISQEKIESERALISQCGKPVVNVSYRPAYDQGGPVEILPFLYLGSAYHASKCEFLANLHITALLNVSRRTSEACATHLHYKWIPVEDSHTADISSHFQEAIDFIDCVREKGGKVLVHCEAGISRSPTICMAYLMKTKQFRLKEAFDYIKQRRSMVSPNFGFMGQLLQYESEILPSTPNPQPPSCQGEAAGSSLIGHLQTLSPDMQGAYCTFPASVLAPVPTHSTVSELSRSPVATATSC
# Genome polyprotein protease: Genome polyprotein, protease (dengue virus type 2, UniProt P29990)
# Genome polyprotein NS2B-NS3 protease: Genome polyprotein, NS2B-NS3 protease (ZIKV, UniProt A0A024B7W1)
# Proteasome component C5/PSMB5 chymotrypsin-like site: Proteasome component C5/PSMB5, chymotrypsin-like site (Homo sapiens, UniProt P20618+P28074)
# UniProt Q8I6U4, sequence (whole entry, looked up): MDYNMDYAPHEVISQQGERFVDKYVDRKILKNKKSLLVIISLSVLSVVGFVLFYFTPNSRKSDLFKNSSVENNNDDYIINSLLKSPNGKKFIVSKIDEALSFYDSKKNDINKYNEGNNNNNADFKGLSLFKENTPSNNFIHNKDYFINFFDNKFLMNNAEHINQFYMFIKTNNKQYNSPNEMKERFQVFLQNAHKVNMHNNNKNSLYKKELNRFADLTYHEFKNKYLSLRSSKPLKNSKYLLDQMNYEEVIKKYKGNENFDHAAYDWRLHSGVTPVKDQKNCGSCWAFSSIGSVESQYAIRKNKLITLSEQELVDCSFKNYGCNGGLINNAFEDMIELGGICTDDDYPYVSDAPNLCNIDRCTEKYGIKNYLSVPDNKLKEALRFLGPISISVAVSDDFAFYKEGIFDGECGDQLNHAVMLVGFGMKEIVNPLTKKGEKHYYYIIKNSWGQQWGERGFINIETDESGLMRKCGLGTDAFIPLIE
# UniProt P28074, sequence (whole entry, looked up): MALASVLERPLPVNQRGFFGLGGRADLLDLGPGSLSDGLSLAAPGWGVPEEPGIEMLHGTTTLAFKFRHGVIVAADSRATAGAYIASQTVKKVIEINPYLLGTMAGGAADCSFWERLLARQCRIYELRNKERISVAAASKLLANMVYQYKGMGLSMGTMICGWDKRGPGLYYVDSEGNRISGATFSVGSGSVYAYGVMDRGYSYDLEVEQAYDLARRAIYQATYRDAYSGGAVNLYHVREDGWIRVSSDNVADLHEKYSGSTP
# UniProt P20618, sequence (whole entry, looked up): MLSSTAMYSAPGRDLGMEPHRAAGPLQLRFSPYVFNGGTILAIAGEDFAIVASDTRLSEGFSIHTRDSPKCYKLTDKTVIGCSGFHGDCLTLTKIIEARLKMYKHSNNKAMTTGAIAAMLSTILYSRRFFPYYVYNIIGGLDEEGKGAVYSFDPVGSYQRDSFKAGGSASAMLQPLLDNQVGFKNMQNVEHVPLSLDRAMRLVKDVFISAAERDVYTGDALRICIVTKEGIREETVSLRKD
# UniProt P00772, sequence (whole entry, looked up): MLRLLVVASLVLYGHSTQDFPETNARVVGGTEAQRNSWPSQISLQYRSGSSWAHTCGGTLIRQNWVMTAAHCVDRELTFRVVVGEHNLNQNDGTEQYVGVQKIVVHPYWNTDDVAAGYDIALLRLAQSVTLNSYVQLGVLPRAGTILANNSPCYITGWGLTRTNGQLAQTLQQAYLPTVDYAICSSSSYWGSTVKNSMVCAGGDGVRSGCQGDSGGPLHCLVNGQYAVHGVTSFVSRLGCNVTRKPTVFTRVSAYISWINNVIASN
# UniProt P33527, sequence (whole entry, looked up): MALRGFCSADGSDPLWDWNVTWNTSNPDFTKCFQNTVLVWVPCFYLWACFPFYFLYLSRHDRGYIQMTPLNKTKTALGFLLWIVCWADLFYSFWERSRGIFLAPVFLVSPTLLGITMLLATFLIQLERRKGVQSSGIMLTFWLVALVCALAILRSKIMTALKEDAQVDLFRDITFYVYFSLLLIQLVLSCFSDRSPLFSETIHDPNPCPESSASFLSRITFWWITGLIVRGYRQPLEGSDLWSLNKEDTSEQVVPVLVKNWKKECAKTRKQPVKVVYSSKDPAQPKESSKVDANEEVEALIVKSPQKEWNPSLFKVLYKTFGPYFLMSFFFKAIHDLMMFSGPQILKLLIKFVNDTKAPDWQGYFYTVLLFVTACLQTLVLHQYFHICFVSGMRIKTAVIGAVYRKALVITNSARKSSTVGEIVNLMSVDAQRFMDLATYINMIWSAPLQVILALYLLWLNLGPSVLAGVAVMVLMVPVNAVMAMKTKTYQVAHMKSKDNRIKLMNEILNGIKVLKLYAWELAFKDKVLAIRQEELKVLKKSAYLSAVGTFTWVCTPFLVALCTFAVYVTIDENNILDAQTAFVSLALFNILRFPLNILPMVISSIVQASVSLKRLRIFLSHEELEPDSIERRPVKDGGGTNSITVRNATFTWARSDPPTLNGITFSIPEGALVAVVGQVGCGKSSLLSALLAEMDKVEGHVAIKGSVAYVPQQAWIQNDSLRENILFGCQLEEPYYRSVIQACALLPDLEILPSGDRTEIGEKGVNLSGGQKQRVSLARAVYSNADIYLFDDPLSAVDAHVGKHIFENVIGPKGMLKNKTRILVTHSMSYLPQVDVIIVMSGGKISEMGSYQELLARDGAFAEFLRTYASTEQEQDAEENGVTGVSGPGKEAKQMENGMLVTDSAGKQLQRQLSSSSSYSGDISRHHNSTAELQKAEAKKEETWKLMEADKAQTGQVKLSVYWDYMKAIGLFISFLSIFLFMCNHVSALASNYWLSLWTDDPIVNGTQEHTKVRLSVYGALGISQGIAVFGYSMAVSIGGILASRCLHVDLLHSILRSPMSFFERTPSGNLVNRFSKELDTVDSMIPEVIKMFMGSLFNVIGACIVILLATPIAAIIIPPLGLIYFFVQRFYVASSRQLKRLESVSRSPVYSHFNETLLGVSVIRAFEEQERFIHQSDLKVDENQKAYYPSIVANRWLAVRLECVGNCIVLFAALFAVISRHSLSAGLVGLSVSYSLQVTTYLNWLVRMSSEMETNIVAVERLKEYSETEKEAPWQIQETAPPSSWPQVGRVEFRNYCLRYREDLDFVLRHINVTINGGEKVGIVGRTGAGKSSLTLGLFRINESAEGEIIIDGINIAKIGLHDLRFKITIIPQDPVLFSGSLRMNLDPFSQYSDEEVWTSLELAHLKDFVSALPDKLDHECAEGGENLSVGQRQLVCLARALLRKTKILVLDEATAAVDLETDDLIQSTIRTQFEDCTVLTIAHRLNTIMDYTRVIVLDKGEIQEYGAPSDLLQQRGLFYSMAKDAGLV
# UniProt Q99436, sequence (whole entry, looked up): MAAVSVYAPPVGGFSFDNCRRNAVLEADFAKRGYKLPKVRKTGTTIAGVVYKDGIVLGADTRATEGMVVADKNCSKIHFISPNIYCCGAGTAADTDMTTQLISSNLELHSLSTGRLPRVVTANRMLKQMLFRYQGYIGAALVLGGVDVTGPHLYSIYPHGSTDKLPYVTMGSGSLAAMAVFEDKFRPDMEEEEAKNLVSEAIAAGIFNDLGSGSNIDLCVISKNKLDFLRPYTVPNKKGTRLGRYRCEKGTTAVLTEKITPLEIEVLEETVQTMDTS
# UniProt P37136, sequence (whole entry, looked up): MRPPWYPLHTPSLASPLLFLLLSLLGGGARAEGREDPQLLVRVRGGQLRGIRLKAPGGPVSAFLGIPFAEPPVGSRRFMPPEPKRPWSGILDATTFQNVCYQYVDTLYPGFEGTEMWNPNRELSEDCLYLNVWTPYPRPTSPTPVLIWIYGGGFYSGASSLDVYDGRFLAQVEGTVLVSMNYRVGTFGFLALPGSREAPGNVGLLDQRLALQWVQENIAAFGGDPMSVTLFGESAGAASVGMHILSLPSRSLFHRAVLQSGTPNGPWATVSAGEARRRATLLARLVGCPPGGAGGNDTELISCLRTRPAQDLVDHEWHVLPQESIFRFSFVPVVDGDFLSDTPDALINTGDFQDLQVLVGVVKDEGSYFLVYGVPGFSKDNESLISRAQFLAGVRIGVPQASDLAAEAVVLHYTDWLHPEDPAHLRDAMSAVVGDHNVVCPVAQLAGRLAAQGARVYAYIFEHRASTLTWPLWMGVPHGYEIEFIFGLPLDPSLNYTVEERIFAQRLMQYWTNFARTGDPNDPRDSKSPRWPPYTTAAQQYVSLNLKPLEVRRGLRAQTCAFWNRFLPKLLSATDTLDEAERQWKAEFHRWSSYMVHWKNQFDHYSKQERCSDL
# UniProt P41595, sequence (whole entry, looked up): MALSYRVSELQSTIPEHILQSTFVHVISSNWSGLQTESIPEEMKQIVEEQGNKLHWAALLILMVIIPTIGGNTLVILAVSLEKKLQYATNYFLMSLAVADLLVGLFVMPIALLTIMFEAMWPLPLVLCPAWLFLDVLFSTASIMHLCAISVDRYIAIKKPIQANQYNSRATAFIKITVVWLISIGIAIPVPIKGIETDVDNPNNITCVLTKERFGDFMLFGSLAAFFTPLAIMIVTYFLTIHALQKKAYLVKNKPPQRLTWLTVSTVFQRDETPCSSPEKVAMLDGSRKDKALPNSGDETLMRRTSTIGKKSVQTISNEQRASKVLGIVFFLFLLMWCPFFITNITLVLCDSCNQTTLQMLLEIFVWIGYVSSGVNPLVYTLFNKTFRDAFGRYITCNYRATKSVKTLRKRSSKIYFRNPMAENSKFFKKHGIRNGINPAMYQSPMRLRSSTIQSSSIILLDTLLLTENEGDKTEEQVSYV
# UniProt Q2FV99, sequence (whole entry, looked up): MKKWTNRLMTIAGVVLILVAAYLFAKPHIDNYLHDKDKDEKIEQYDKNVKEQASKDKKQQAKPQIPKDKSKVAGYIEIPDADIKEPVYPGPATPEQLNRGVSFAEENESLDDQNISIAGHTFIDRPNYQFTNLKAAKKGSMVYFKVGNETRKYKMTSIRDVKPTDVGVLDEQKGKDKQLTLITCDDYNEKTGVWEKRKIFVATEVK
# UniProt Q5U3Y7, sequence (whole entry, looked up): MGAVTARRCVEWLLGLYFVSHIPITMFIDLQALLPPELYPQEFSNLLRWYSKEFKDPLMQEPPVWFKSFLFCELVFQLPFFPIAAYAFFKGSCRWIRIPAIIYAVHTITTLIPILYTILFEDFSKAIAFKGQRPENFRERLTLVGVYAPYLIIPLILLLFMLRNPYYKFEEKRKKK
SMILES,target,test,test system,setting,IC50
C[C@H]1[C@@H](CC(=O)NCCCC(=O)N[C@@H](CC(=O)NC(C)(C)C)C(=O)NCCNC(=O)c2cc(-c3ccccc3F)ccc2F)O[C@@H]2O[C@@]3(C)CC[C@H]4[C@H](C)CC[C@@H]1[C@@]24O3,"Proteasome component C5/PSMB5 (Homo sapiens, UniProt P20618+P28074)",inhibitor,constitutive 20S proteasome,with: suc-LLVY-AMC substrate,1.1 ± 0.046 µM
CSCC[C@H](NC(=O)[C@H](CO)NC(=O)[C@H](CO)NC(=O)[C@H](CC(C)C)NC(=O)[C@H](Cc1c[nH]cn1)NC(=O)[C@H](CCCCN)NC(=O)[C@@H](Cc1c[nH]c2ccccc12)NC(=O)[C@H](CC(C)C)NC(=O)[C@H](CC(N)=O)NC(=O)[C@H](Cc1c[nH]cn1)NC(=O)[C@H](CCSC)NC(=O)[C@@H](N)Cc1ccccc1)C(=O)N[C@@H](CCC(=O)O)C(=O)N[C@@H](CCCNC(=N)N)C(=O)N[C@H](C(=O)N[C@@H](CCC(=O)O)C(=O)N[C@@H](Cc1c[nH]c2ccccc12)C(=O)N[C@@H](CC(C)C)C(=O)N[C@@H](CCCNC(=N)N)C(=O)N[C@@H](CCCCN)C(=O)N[C@@H](CCCCN)C(=O)N[C@@H](CC(C)C)C(=O)N[C@@H](CCC(N)=O)C(=O)N[C@@H](CC(=O)O)C(=O)N[C@H](C(=O)N[C@@H](Cc1c[nH]cn1)C(=O)N[C@@H](CC(N)=O)C(=O)N[C@@H](Cc1ccccc1)C(N)=O)C(C)C)C(C)C,"Parathyroid hormone/parathyroid hormone-related peptide receptor (PTH1R, Homo sapiens, UniProt Q03431)","cAMP generation, antagonist, GloSensor luciferase",SGS-72,with: M-PTH(1-11) 10 nM,0.00044 ± 0.00013 µM
C[C@@H]1C[C@H]2[C@@H]3CCC4=CC(=O)C=C[C@]4(C)[C@@]3(Cl)[C@@H](O)C[C@]2(C)[C@@]1(OC(=O)c1ccco1)C(=O)CCl,"Multidrug resistance-associated protein 1 (ABCC1, Homo sapiens, UniProt P33527)","efflux, inhibitor, flow cytometry",SupT1 cells overexpressing ABCC1,with: rhodamine B hexyl ester 500 nM,2.2 ± 1.1 µM
NC(Cc1onc(O)c1Cl)C(=O)O (stereo not drawn),"Glutamate receptor 2 (Gria2, Rattus norvegicus, UniProt P19491, del528-650/S652T/V651G)","ligand displacement, radioligand",,,5 µM
O=C1OC2(c3cc(Br)c(O)cc3Oc3cc(O)c(Br)cc32)c2ccccc21,Dual specificity protein phosphatase 5,phosphatase activity,,"60 min, without DTT, with: pNPP",44.7 ± 2.2 µM
C[C@H](NC(=O)Cc1cc(F)cc(F)c1)C(=O)N[C@H]1N=C(c2ccccc2)c2ccccc2N(C)C1=O,"gamma-secretase complex (Cricetulus griseus, UniProt A0A061HTR1+A0A061IL97+A0A8C2QG42+G3HNF2)","APLP2 ICD production, inhibitor",APLP2-His CHO cell microsomes,37 °C,0.0053 µM
C[C@@H]1NC(=O)[C@H](CCCNC(=N)N)NC(=O)[C@H]([C@@H](C)O)NC(=O)[C@@H](NC(=O)[C@H](CCC(N)=O)NC(=O)[C@H](Cc2ccccc2)NC(=O)[C@@H]2CCCN2)CSSC[C@@H](C(=O)N[C@H](C(=O)N[C@@H](CCCCN)C(=O)N[C@@H](CO)C(=O)O)[C@@H](C)O)NC(=O)[C@H](Cc2ccc(O)cc2)NC(=O)[C@H](Cc2ccc(O)cc2)NC(=O)[C@H](Cc2c[nH]c3ccccc23)NC(=O)CNC(=O)[C@H](CC(=O)O)NC(=O)[C@H](CCCNC(=N)N)NC1=O,"Activin receptor type-2B (ACVR2B, Homo sapiens, UniProt Q13705)","reporter gene, antagonist, refers to: Smad2/3",HEK293T,"4 h, with: activin A 0.33 ng/mL",> 100 µM
CN1CCN(CCOc2ccc(Cl)cc2C(=O)Nc2ccc([N+](=O)[O-])cc2Cl)CC1,Genome polyprotein protease,"enzyme activity, inhibitor, FRET",,,> 60 µM
COc1cc(-c2nc3cc4nc5ccccc5nc4cc3[nH]2)cc(OC)c1OC,Genome polyprotein protease,"enzyme activity, inhibitor, fluorescence",,pH 8.5,136 µM
Fc1ccc(-n2cc(COc3ccnc4cc(Cl)ccc34)nn2)cc1F,"FP2A (Plasmodium falciparum, UniProt Q8I6U4)","enzyme activity, inhibitor, fluorescence",,"pH 5.5, with preincubation",16.2 µM and 25 to 26 µM and 25.6 µM
C=C(NC(=O)C(=C)NC(=O)c1csc(C2=N[C@@H]3c4csc(n4)[C@H]4NC(=O)c5csc(n5)[C@H]([C@](C)(O)[C@@H](C)O)NC(=O)[C@H]5CSC(=N5)/C(=C/C)NC(=O)[C@H]([C@@H](C)O)NC(=O)c5csc(n5)[C@]3(CC2)NC(=O)[C@H](C)NC(=O)C(=C)NC(=O)[C@H](C)NC(=O)[C@H]([C@@H](C)CC)N[C@@H]2C=Cc3c([C@H](C)O)cc(nc3[C@H]2O)C(=O)O[C@@H]4C)n1)C(N)=O,"Proteasome subunit beta type-7, in 20S proteasome (PSMB7, Homo sapiens, UniProt Q99436)","trypsin-like activity, inhibitor",purified 20S proteasome,"15 min preincubation, 37 °C, with: Boc-Leu-Arg-Arg-AMC substrate",0.95 ± 0.15 µM
Oc1c(Cl)cc(-c2ccc(Cl)cc2Cl)cc1Cl,"Sulfotransferase 1A1 (Sult1a1, Rattus norvegicus, UniProt P17988)","enzyme activity, inhibitor",,,0.85 µM
O=C1C2CC=CCC2C(=O)N1c1n[nH]c(Cc2ccccc2)n1 (stereo not drawn),"Alkaline phosphatase, tissue-nonspecific isozyme (ALPL, Homo sapiens, UniProt P05186)","enzyme activity, inhibitor, luminescence",,"with: 1 µM CDP-star, 100 mM DEA",0.07 ± 0.003 µM
C/C=C1\NC(=O)[C@@H](NC(=O)[C@@H](NC(=O)[C@H](C)NC(=O)C/C(C)=C/Cl)C(C)C)[C@@H](C)OC(=O)[C@H](C(C)C)NC(=O)[C@H](Cc2ccc(O)cc2)N(C)C(=O)[C@H](Cc2ccccc2)N2C(=O)[C@H](CC[C@H]2O)NC1=O,"Chymotrypsin-like elastase family member 1 (CELA1, Sus scrofa, UniProt P00772)","enzyme activity, inhibitor, fluorescence",,pH 7.4,0.00205 µM
Oc1ccc(-c2cc(-c3ccc(O)cc3)c(-c3ccc(O)cc3)[se]2)cc1,"Estrogen receptor (ESR1, Homo sapiens, UniProt P03372)",antagonist,HEK293T,with: estradiol 10 nM,10.4 µM
NCc1ccc(-c2ncc(NCC3CCNCC3)nc2C(=O)Nc2ccc(Br)cc2)cc1,Genome polyprotein NS2B-NS3 protease,inhibitor,Zika virus,,12.6 µM
Nc1ncnc2c1c(-c1cnc3[nH]ccc3c1)nn2C1CCCC1,"Mitogen-activated protein kinase kinase kinase 2 (MAP3K2, Homo sapiens, UniProt Q9Y2U5)","enzyme activity, inhibitor",,,0.007 µM
O=C1c2ccccc2SC(c2ccccc2)N1CCCN1CCCCC1 (stereo not drawn),"Acetylcholinesterase (Ache, Rattus norvegicus, UniProt P37136)","inhibitor, Ellman method",rat cerebral cortex homogenate,with: acetylthiocholine,8.5 µM
COc1cccc(NC(=O)C(=O)[C@H](CC(C)C)NC(=O)[C@H](CC(C)C)NC(=O)[C@H](CC(C)C)NC(=O)c2ccc(-c3ccc(C(C)=O)cc3)o2)c1,Proteasome component C5/PSMB5 chymotrypsin-like site,"enzyme activity in cells, inhibitor",,,0.0288 µM
CC1=NN(c2ccccc2)C(=S)/C1=C/Nc1ccc(/N=N/c2ccccc2)cc1,"srtA (Staphylococcus aureus, UniProt Q2FV99)","enzyme activity, inhibitor",,,< 5 µM
Fc1cc(C2=Nn3c(COc4ccc(Cl)cc4Cl)nnc3S/C2=C\c2ccc(-c3ccc(Cl)cc3)o2)c(Cl)cc1Cl,Genome polyprotein NS2B-NS3 protease,"enzyme activity, inhibitor",Zika virus,"pH 8.0, with: 20 µM Pyr-RTKR-AMC",2.17 µM
COc1ccc(CC2NCCc3c2[nH]c2ccc(C)cc32)c(Cl)c1OC (stereo not drawn),"5-hydroxytryptamine receptor 2B (HTR2B, Homo sapiens, UniProt P41595)",,,,0.078 µM
O=C1Nc2ccccc2/C1=C/c1cnc[nH]1,"Glycogen synthase kinase 3, short isoform (Leishmania infantum, UniProt A4HXQ3)","enzyme activity, inhibitor",,"90 min, 30 °C, with: ATP 2 µM",13.6 µM
Cn1cc(-c2nc(OCC3CCNCC3)cnc2-c2ccc(CN)cc2)cn1,Genome polyprotein NS2B-NS3 protease,inhibitor,Zika virus,,24.6 µM
NC[C@@H]1O[C@H](O[C@H]2[C@@H](O)[C@H](O[C@@H]3[C@@H](O)[C@H](N)C[C@H](N)[C@H]3O[C@H]3O[C@H](CN)[C@@H](O)[C@H](O)[C@H]3N)O[C@@H]2Cn2cc(-c3cccc(-c4cn(C[C@H]5O[C@@H](O[C@@H]6[C@@H](O)[C@H](N)C[C@H](N)[C@H]6O[C@H]6O[C@H](CN)[C@@H](O)[C@H](O)[C@H]6N)[C@H](O)[C@@H]5O[C@H]5O[C@@H](CN)[C@@H](O)[C@H](O)[C@H]5N)nn4)c3)nn2)[C@H](N)[C@@H](O)[C@@H]1O,HIV-1 TAR RNA,"Tat peptide binding, FRET competition",,"pH 7.4, 25 °C",0.047 ± 0.006 µM
CCCCCc1cc(O)cc(O)c1C(=O)Oc1cc(CCCCC)c2c(c1)OC(C)(C)OC2=O,"DNA topoisomerase 1 (topA, Escherichia coli, UniProt P06612)","enzyme activity, inhibitor",,,> 1000 µM
CC12CCC3c4ccc(OS(N)(=O)=O)cc4CCC3C1CCC2=O (stereo not drawn),"Steryl-sulfatase (STS, Homo sapiens, UniProt P08842)",inhibitor,JEG-3,,0.000118 µM
OC(c1cc(C(F)(F)F)nc2c(C(F)(F)F)cccc12)C1CCCCN1 (stereo not drawn),"Beta-glucuronidase (uidA, Escherichia coli, UniProt P05804)","enzyme activity, inhibitor",,,1.21 µM
CC(C)N(CCCNC(=O)Nc1ccc(C(C)(C)C)cc1)C[C@H]1O[C@@H](n2ccc3c(N)ncnc32)[C@H](O)[C@@H]1O,"DNA adenine methyltransferase CamA (Clostridioides difficile, UniProt Q183J3)","DNA methylation, inhibitor, MTase-Glo luminescence",,"2.5 min, room temperature, with: SAM 40 µM, dsDNA 5 µM",43 µM
COP(=O)(OC)SCn1nnc2ccccc2c1=O,rat liver carboxylesterase,"enzyme activity, inhibitor","rat, postnatal day 1, liver homogenate",with: p-nitrophenyl valerate,0.182 µM
CCCCCCCCCCCCC/C=C/[C@@H](O)[C@H](CO)N(C)C,"Sigma intracellular receptor 2 (Tmem97, Rattus norvegicus, UniProt Q5U3Y7)","ligand displacement, radioligand",,cell membranes,62 µM
CNC(=O)OCC[N+](C)(C)C,"Neuronal acetylcholine receptor subunit alpha-4/beta-2 (Mus musculus, UniProt O70174+Q9ERK7)",receptor desensitisation,mouse thalamic synaptosomes,high ACh-sensitivity component,0.0786 ± 0.0178 µM
c1nc2c(NCc3ccc(CCNCCCNC4CCCCC4)cc3)nc(N3CCNCC3)nc2[nH]1,"C-X-C chemokine receptor type 4 (CXCR4, Homo sapiens, UniProt P61073)","ligand displacement, radioligand",,cell membranes,0.0164 µM
O=C1OC2(c3cc(Cl)c(O)cc3Oc3cc(O)c(Cl)cc32)c2ccccc21,Dual specificity protein phosphatase 5,phosphatase activity,,"30 min, 1 mM DTT, with: pNPP",217 ± 4.8 µM
Cc1noc(C)c1-c1ccc(-c2nc(OCC3CCNCC3)cnc2-c2ccc(CN)cc2)cc1,Genome polyprotein NS2B-NS3 protease,inhibitor,Zika virus,,> 10 µM
COc1ccc(C[C@H](NC(=O)[C@H](C)NC(=O)CN2CCOCC2)C(=O)N[C@@H](CC(C)C)C(=O)C(=O)Nc2ccccc2)cc1,Proteasome component C5/PSMB5 chymotrypsin-like site,"enzyme activity in cells, inhibitor",,,0.419 µM

# Excerpt of the above:
SMILES,target,test,test system,setting,IC50
CCCCCCCCCCCCC/C=C/[C@@H](O)[C@H](CO)N(C)C,"Sigma intracellular receptor 2 (Tmem97, Rattus norvegicus, UniProt Q5U3Y7)","ligand displacement, radioligand",,cell membranes,62 µM
NC[C@@H]1O[C@H](O[C@H]2[C@@H](O)[C@H](O[C@@H]3[C@@H](O)[C@H](N)C[C@H](N)[C@H]3O[C@H]3O[C@H](CN)[C@@H](O)[C@H](O)[C@H]3N)O[C@@H]2Cn2cc(-c3cccc(-c4cn(C[C@H]5O[C@@H](O[C@@H]6[C@@H](O)[C@H](N)C[C@H](N)[C@H]6O[C@H]6O[C@H](CN)[C@@H](O)[C@H](O)[C@H]6N)[C@H](O)[C@@H]5O[C@H]5O[C@@H](CN)[C@@H](O)[C@H](O)[C@H]5N)nn4)c3)nn2)[C@H](N)[C@@H](O)[C@@H]1O,HIV-1 TAR RNA,"Tat peptide binding, FRET competition",,"pH 7.4, 25 °C",0.047 ± 0.006 µM
CNC(=O)OCC[N+](C)(C)C,"Neuronal acetylcholine receptor subunit alpha-4/beta-2 (Mus musculus, UniProt O70174+Q9ERK7)",receptor desensitisation,mouse thalamic synaptosomes,high ACh-sensitivity component,0.0786 ± 0.0178 µM
CN1CCN(CCOc2ccc(Cl)cc2C(=O)Nc2ccc([N+](=O)[O-])cc2Cl)CC1,Genome polyprotein protease,"enzyme activity, inhibitor, FRET",,,> 60 µM
O=C1c2ccccc2SC(c2ccccc2)N1CCCN1CCCCC1 (stereo not drawn),"Acetylcholinesterase (Ache, Rattus norvegicus, UniProt P37136)","inhibitor, Ellman method",rat cerebral cortex homogenate,with: acetylthiocholine,8.5 µM
